{"data": "Experimental data of several laboratories", "note": "Parts stem from different laboratories: compare values within a part only."}
{"data": "Series 1", "target": "RNA binding protein fox-1 homolog 2, RRM domain, GST-SBP tag (RBFOX2, Homo sapiens, UniProt O43251-10, residues 100-194)", "technique": "RNA Bind-n-Seq", "form": "RNA", "matrix": "in vitro", "concentration": "365 nM", "setting": "natural RNA segment, single round, ends assumed", "baseline": "no-protein control", "direction": "higher = stronger binding", "shared flanks, not repeated": "GGGAGUUCUACAGUCCGACGAUC … UGGAAUUCUCGGGUGCCAA", "Construct (chain)": "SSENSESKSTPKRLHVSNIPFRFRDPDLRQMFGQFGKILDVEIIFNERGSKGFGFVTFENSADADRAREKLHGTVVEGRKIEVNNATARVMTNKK"}
{"Strand": "ACCUGCAUAGUUGCUACAUACAUGUUUCUCACUGUAAAAGGCUGCCGCUGGGUGGCAGAAGCCAAAAGACCUUAUUAACGAGGCUAUAUUUUUCUUAACUUGAUCUGCAA", "RBNS enrichment (R)": 0.369}
{"Strand": "CCUUACUGUGGCAGCAGUGUCACUGUCACUGAAAUAAACGUAAGCCCUACCUUCUUUCUUGUUUGAUUGAUUUAGACACACUGGUGCUCUUACAGGUGGAGAAUGAGUGU", "RBNS enrichment (R)": 0.406}
{"Strand": "GUGAUGCCCUCCUGGGCCCUUAGGCAGAGCCUGGUCCAUUGUACCAGGCAGCCUAGCCCAGCCCAGGGCACAUGGCAAGAGGGACUGGACCCACCUUUGGGUGAUGGGUG", "RBNS enrichment (R)": 0.297}
{"Strand": "CUCCACUUUCUUUAAGAAUCAGGGGGUACAGAAUAACCUACAAACAACCUCUUCAAAGUACCCUUGGAAAUUGAAGUUCAAUCUUAAGUUUUUUGCUGUCUUUAAUUUAC", "RBNS enrichment (R)": 0.367}
{"Strand": "ACUUUAAAGCGCUCCAGCCAACAGCUGUAGGUGAGACCUGGGAGGGGAGGAACUGCACCAGCGCACAAUCCUAAGAGCCUCGGCUCCUUGCCCAUUCACUUCAGUCUGCA", "RBNS enrichment (R)": 2.78}
{"Strand": "AGUGGUUAAUGCUUCCUUUAAAAAUAAUUGAGUCAUCCAUUCACUCUUUUUCAGUUUUAUCUGUCAAUAGUAGCUACAUUUUUAAUGGGAGCACCUUUUAUCCCAAAGUG", "RBNS enrichment (R)": 0.335}
{"Strand": "AAGAGUCUACCUUUCCAAGUUCUCACUGCUGGAAAGAGCUAGAAGCACAGUUCAAAGUUCUGGCUUCUGGACUCUGCAGUCCAGGUCUCCCUUCUCCCACUUGCCUACCC", "RBNS enrichment (R)": 0.277}
{"Strand": "AGCCACGCUGCUCUUCCGAGACUUCCAUUCCUUUCUGAUUGGCACACGUGCAGCUCAUGACAAUCUGUAGGAUAACAAUCAGUGUGGAUUUCCACUCUUUUCAGUCCUUC", "RBNS enrichment (R)": 0.166}
{"data": "Series 2", "target": "Histone acetyltransferase KAT6A, winged helix 2, GST fusion (KAT6A, Homo sapiens, UniProt Q92794, residues 85-181)", "technique": "protein binding microarray", "form": "double-stranded DNA, one strand shown", "matrix": "in vitro", "concentration": "not given", "setting": "8-mer, flanks averaged, mean of 2 arrays, mostly near background", "baseline": "not given", "direction": "higher = stronger binding", "Construct (chain)": "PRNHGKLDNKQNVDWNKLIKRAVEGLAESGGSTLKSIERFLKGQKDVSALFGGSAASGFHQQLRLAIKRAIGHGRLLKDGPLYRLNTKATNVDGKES"}
{"Strand": "AAAAGAAA", "E-score": 0.0502}
{"Strand": "ACGCCCCA", "E-score": 0.11}
{"Strand": "CTGCGTAA", "E-score": 0.03}
{"Strand": "ACTAGTTG", "E-score": -0.252}
{"Strand": "ACGGGTGA", "E-score": -0.0143}
{"Strand": "CAGACCCC", "E-score": -0.0897}
{"Strand": "GTAGCCAA", "E-score": -0.158}
{"Strand": "AGGGTTAG", "E-score": -0.164}
{"Strand": "AGAAGAAA", "E-score": 0.128}
{"Strand": "GATAGACC", "E-score": -0.0629}
{"Strand": "GTAGGGTA", "E-score": -0.0702}
{"Strand": "CTTCCAAC", "E-score": -0.0732}
{"Strand": "CCCTGGAG", "E-score": -0.117}
{"Strand": "AGGGAGAT", "E-score": -0.2}
{"Strand": "GAAACATC", "E-score": 0.0472}
{"Strand": "GTACTTTA", "E-score": -0.153}
{"Strand": "AGTAGCCC", "E-score": -0.0431}
{"Strand": "AGGCGGGA", "E-score": 0.158}
{"Strand": "CGCTCGTA", "E-score": -0.0883}
{"Strand": "CCTAAGAG", "E-score": -0.0326}
{"data": "Series 3", "target": "RING finger protein unkempt homolog, zinc fingers 1-6, GST-SBP tag (UNK, Homo sapiens, UniProt Q9C0B0, residues 30-357)", "technique": "RNA Bind-n-Seq", "form": "RNA", "matrix": "in vitro", "concentration": "not given", "setting": "RNA with constant flanks, human-mouse chimeric sites, ends assumed", "baseline": "input RNA pool", "direction": "higher = stronger binding", "shared flanks, not repeated": "GGGAGUUCUACAGUCCGACGAUC … CAACAGAGGAUUGAGCAUCA", "UniProt Q9C0B0, sequence (30-357, looked up)": "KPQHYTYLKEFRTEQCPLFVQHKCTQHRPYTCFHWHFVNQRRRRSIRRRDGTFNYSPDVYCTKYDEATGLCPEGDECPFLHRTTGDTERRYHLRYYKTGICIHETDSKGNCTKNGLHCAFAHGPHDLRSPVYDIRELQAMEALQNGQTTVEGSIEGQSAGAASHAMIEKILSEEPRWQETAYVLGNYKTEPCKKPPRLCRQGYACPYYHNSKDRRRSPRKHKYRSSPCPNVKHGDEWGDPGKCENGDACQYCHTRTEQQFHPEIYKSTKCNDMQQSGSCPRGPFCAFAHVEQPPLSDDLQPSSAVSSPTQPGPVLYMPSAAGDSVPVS"}
{"Strand": "CUCGGCACCGGCACGCUUUACAUCGCGGAGAGCCGCCUGUCUUGGUUAGAUGGUUCGGGAUUAGGAUUCUCACUGGAAUACCCCACCAUUAGUUUACAUGCGGUGUCCAGGGACCGAAAC", "bound/input enrichment [ratio]": 0.676}
{"Strand": "UUCAAAGAAAAGGGCAGCUGUGUCAUUUCAUAAGUAAAACUGCAUCCGGGAAAUUCUGUUCUUUUGUUUUUAGUUUUCCCAAAUGAAGCCAAAGUGUGUGUUGAAGAACUGAGAAAAAAU", "bound/input enrichment [ratio]": 0.42}
{"Strand": "CACGUGUCUGCAGUACUUGAUGUGGAUUACUCUCCCACUGGGAAGGAAUUUGUGUCUGCCAGCUUUGAUAAGUCUAUUAGAAUCUUUCCUGUGGACAAGAGCCGAAGCAGGGAAGUGUAU", "bound/input enrichment [ratio]": 0.217}
{"Strand": "AUGGAGAAGGAUUCUCUGCCUCGCUUUGUGCGCUCUGAAUUUUAUAAGGAGCUAAUCAAGUAGUCAUCUGGUCAGGCUUCCAAAAGUUGCCCUGUGAGUUGAGUUACAUCCUUUGUAGCA", "bound/input enrichment [ratio]": 0.141}
{"Strand": "GAUCAUGAACCACCAUCAGAAAUGAAGAUGAGAUUACCCAGACGAGCCAAAACAGCUGCGCUACAGAAAAAGUAAACUAACCUUGCACCAAUUUCUCAUGAAGAUACAAGUUAAGAGAGC", "bound/input enrichment [ratio]": 0.395}
{"Strand": "AUGCAGUAUGAGACCAACAGCAUGGACUUCAAAGUUGGGGCAGAUGGGACAGUCUUCGCCACCCGGGAGCUGCAGGUCCCCUCAGAGCAGGUGGCGUUCACGGUGACUGCAUGGGACAGC", "bound/input enrichment [ratio]": 0.191}
{"Strand": "UGUGCAUAUGAUGCUUGAGAUGGUUUUUGCAAAAGCAGACAUCGCUGCAAGGUAAUCACAAUAGAUAAAAGUGGUAUUUUAAACCUUUGAAAUAAAUGGAUGUAACUGUACGUUGGUACA", "bound/input enrichment [ratio]": 0.849}
{"Strand": "UGGCGCCUGCGCUCCCCACUCGUGUUUUUAAGUGUAUUUUUAUAAGAUACAUGUAUUUGUAAUAGAUCUUUUGUUACAUAAUGCUGAAAUGCUACUGCAAUAUUAUGAAAAUGUUUCAAU", "bound/input enrichment [ratio]": 0.254}
{"data": "Series 4", "target": "Prothrombin, mature alpha-thrombin (F2, Homo sapiens, UniProt P00734)", "technique": "aptamer microarray, sandwich", "form": "DNA with 2'F-ANA", "matrix": "in vitro", "concentration": "200 nM", "setting": "whole 15-mer aptamer, many near background", "added": "Cy3 exosite-II aptamer, 400 nM", "direction": "higher = stronger binding", "strand": "GGTTGGTGTGGTTGG"}
{"Modification": "2'F-ANA at 1 9 10 11 12 14", "mean fluorescence intensity [a.u.]": 47.3}
{"Modification": "2'F-ANA at 2 3 4 5 6 8 10 12", "mean fluorescence intensity [a.u.]": 84.7}
{"Modification": "2'F-ANA at 1 3 4 5 6 7 9 10 14", "mean fluorescence intensity [a.u.]": 46.7}
{"Modification": "2'F-ANA at 2 6 7 8 9 10 11 12 14 15", "mean fluorescence intensity [a.u.]": 102}
{"Modification": "2'F-ANA at 1 2 4 5 7 8 12 13 14 15", "mean fluorescence intensity [a.u.]": 53.5}
{"Modification": "2'F-ANA at 4 9 11 14 15", "mean fluorescence intensity [a.u.]": 78.8}
{"Modification": "2'F-ANA at 3 4 5 7 11 14", "mean fluorescence intensity [a.u.]": 63.1}
{"Modification": "2'F-ANA at 1 2 3 6 7 9 10 14", "mean fluorescence intensity [a.u.]": 52.9}
{"Modification": "2'F-ANA at 2 6 7 9 11 14", "mean fluorescence intensity [a.u.]": 117}
{"Modification": "2'F-ANA at 2 4 5 6 9 12 13 15", "mean fluorescence intensity [a.u.]": 81.2}
{"Modification": "2'F-ANA at 4 7 12", "mean fluorescence intensity [a.u.]": 731}
{"Modification": "2'F-ANA at 1 2 3 5 6 8 10 14 15", "mean fluorescence intensity [a.u.]": 110}
{"Modification": "2'F-ANA at 5 6 7 12 13 14", "mean fluorescence intensity [a.u.]": 68.7}
{"Modification": "2'F-ANA at 3 7 8 10 14", "mean fluorescence intensity [a.u.]": 489}
{"Modification": "2'F-ANA at 1 2 7 10 12 13 14", "mean fluorescence intensity [a.u.]": 49.3}
{"Modification": "2'F-ANA at 3 5 8 10 11 12 14 15", "mean fluorescence intensity [a.u.]": 51.4}
{"Modification": "2'F-ANA at 2 3 4 5 7 9 10 15", "mean fluorescence intensity [a.u.]": 56.9}
{"note": "A few entries again (series 4):"}
{"Modification": "2'F-ANA at 2 6 7 9 11 14", "mean fluorescence intensity [a.u.]": 117}
{"Modification": "2'F-ANA at 1 2 7 10 12 13 14", "mean fluorescence intensity [a.u.]": 49.3}
{"Modification": "2'F-ANA at 3 4 5 7 11 14", "mean fluorescence intensity [a.u.]": 63.1}
{"Modification": "2'F-ANA at 3 5 8 10 11 12 14 15", "mean fluorescence intensity [a.u.]": 51.4}
{"Modification": "2'F-ANA at 2 6 7 8 9 10 11 12 14 15", "mean fluorescence intensity [a.u.]": 102}
